# Assay results collected from several papers.
# Compare with care: the assays were run in different laboratories. Several values in a cell are separate wells, animals, samples, runs or records. Numbers after ± are the reported error.
SMILES,assay,test system,conditions,how to read,measurement,result
Cc1c(C(=O)O)ccc2c3n(nc12)[C@@H]1[C@H](C3)N(CC2CC2)[C@@]2(C(=O)Nc3cc(Cl)ccc32)[C@H]1c1cccc(Cl)c1F,,"female BALB/c nude mice, SJSA-1 xenograft, plasma","oral, 2 mg/kg once daily, 7 h",,plasma concentration,1270 nM
COc1cc(Nc2ncc3c(n2)-c2ccc(Cl)cc2C(c2c(F)cccc2OC)=NC3)ccc1C(=O)O,,patients,"oral, dose not given, grade 3, any attribution, with: pembrolizumab",,decreased platelet count incidence,8%
N#CCC(=O)Nc1ccc(C2CCCCC2)cc1,hepatocyte stability,cryopreserved rat hepatocytes,1 µM,,hepatic clearance,50 mL/min/kg
Cl.N=C(CC(O)c1cc2c(F)cc(F)cc2c2cc(C(F)(F)F)ccc12)Nc1ccc(F)c(F)c1 (stereo not drawn),,human plasma,"50 ng/mL, 24 h, 37 °C",,degradation,37.8%
CCO,,human,concentration not given,,TEAE leading to withdrawal,0%
COCCN(C)C(=O)c1ccc(C2CCCCC2)cc1,liver microsome stability,cynomolgus liver microsomes,1 µM,,hepatic clearance,40 mL/min/kg
C=CC(=O)Nc1cc(Nc2nccc(-c3cn(C4CC4)c4ccccc34)n2)c(OC)cc1N(C)CCN(C)C,autosampler stability,rat plasma,"40 ng/mL, 4 h, 10 °C",reference: nominal concentration,relative error,0.2%
CN1CCN(C(=O)c2ccc([C@H]3[C@@H](F)[C@@H](F)C[C@@H](F)[C@H]3F)cc2)CC1,liver microsome stability,rat liver microsomes,1 µM,,hepatic clearance,19 mL/min/kg
C[Si]1(C)O[Si](C)(C)O[Si](C)(C)O[Si](C)(C)O1,IVIVE from S9,rainbow trout (Oncorhynchus mykiss),,,hepatic biotransformation rate constant,0.037 h⁻¹ and 0.069 h⁻¹ and 0.038 h⁻¹
O=C(COc1ccc(Cl)cc1)NC12CC(c3nnc([C@H]4C[C@@H](OC(F)(F)F)C4)o3)(C1)C2,,"healthy human volunteers fasted, plasma","oral, 200 mg single dose, geometric mean",,Cmax,2070 nM
CC(C)(C(=O)N1CCOc2c(C#N)cncc2C1)C(F)F,refers to: Investigations,human,"oral, 10 mg, CSF pharmacokinetic cohort",,subjects with adverse event,16.7%
CN1CCN(c2cccc3c2CCN(C(=O)/C=C/c2c(-n4cnnn4)ccc(Cl)c2F)[C@@H]3C(=O)Nc2ccc(C(=O)O)cc2)C(=O)C1,,healthy human subjects,"intravenous infusion, 4 mg/h, 2 h",,subjects with nausea,0%
COCCC(=O)Nc1ccc([C@H]2[C@@H](F)[C@@H](F)C[C@@H](F)[C@H]2F)cc1,liver microsome stability,dog liver microsomes,1 µM,,hepatic clearance,7.6 mL/min/kg
CCCOc1ccc(NC(=O)CN2CCN(C)CC2)cc1-c1nc(CC)c(CC)c(=O)[nH]1,,healthy Chinese men,"10 mg, with: alcohol 0.5 g/kg",reference: compound with placebo alcohol,maximal diastolic BP decrease difference,0 mmHg
CCN1/C(=C/C(C)=O)Sc2ccc(F)cc21,,cynomolgus monkey,"oral, 10 mg/kg, 24 h post-dose",,diastolic blood pressure,79 ± 3 mmHg
Cc1cc(C)c(CNC(=O)c2cc(Cl)c3c(c2C)O[C@@](C)([C@H]2CC[C@H](N(C)C)CC2)O3)c(=O)[nH]1,,human relapsed/refractory NHL,"oral, 200 mg once daily, onset day 1 to 14",,adenovirus infection grade ≥3,0%
COc1ccnc(C(N)=O)c1O,soil adsorption,clay loam soil,"pH 7.2, organic carbon 4.4 %",,KFoc,396 mL/g
N#Cc1ccc2c(c1)[C@H]1CCCN(C(=O)c3ccc4[nH]cnc4c3)[C@H]1C2,,human,"160 mg, day 15",,maximum ACTH level,12.6 pmol/L
CCOc1c([C@H](C)n2nc(C)c3c(N)ncnc32)cc(Cl)c(F)c1[C@@H]1CNC(=O)C1,,"patients, monotherapy","oral, 20 mg once daily, cycle 1 day 1",,Cmax geometric mean,1140 nM
O=C([O-])CN1CCN(CC(=O)[O-])CCN([C@H](CO)[C@H](O)CO)CCN(CC(=O)[O-])CC1.[Gd+3] (racemic),ICP-MS,"rat, femur bone marrow","intravenous, 0.6 mmol Gd/kg, 1 week",,Gd concentration,2.3 nmol/g
CNC(=O)c1ccc(-c2cnc3ncc(Cc4ccc5ncccc5c4)n3n2)cc1F,,"human, healthy subjects, plasma","oral, 200 mg, covariate-adjusted geometric mean",,AUCinf,6670 ng·h/mL
Cc1cc(Nc2ccc(S(F)(F)(F)(F)F)cc2)n2nc(C(C)(F)F)nc2n1,,"CD-1 mouse, female, whole blood","oral, 300 mg/kg daily, 8 h after dose 3, spray-dried dispersion",,blood concentration,255000 ± 101000 nM
CC(C)Cn1cnc2c(N)nc3ccccc3c21,,"C57BL/6J mice, male, solvent-treated, liver microsomes","1 µM, 45 min",,remaining compound,~7%
C[C@]12CC[C@@H]3c4ccc(O)cc4CC[C@H]3[C@@H]1CCC2=O,,cow whole milk,200 nM,reference: milk fat over skim milk,milk fat partition ratio,62.8
C[C@H](NC(=O)/C(C#N)=C/c1cccc(Br)n1)c1ccccc1,LC-MS/MS,"patients, plasma","oral, 1 mg/kg, cycle 1 day 8",,half-life,1.2 h
COc1ccc2[nH]c([S+]([O-])Cc3ncc(C)c(OC)c3C)nc2c1 (stereo not drawn),,"healthy Chinese volunteers, plasma","oral, 20 mg, fed, CYP2C19 intermediate metabolizers",,AUC(0-inf),722 ± 488 ng·h/mL
CCCc1nn(C)c2c(=O)[nH]c(-c3cc(S(=O)(=O)N4CCN(C)CC4)ccc3OCC)nc12,,"human, plasma","oral, 100 mg, geometric mean, with: placebo",,AUC(0-22),1230 ng·h/mL
Nc1ccn([C@@H]2O[C@H](CO)[C@@H](O)C2(F)F)c(=O)n1,HPLC-UV,"human, plasma","800 mg/m^2, median, after paricalcitol",,volume of distribution,251 L/m²
C=CCN1CC(=O)N2[C@@H](Cc3ccc(O)cc3F)C(=O)N(Cc3cccc(N4CC(N5CCN(CC)CC5)C4)n3)C[C@@H]2N1C(=O)NCc1ccccc1,refers to: Malaise,advanced solid tumour patients,"oral, 100 mg twice daily, expansion part, grade ≥3",,treatment-related adverse events,0%
C[C@@H](Nc1cc(F)cc(F)c1)c1cc(C(=O)N(C)C)cc2c(=O)cc(N3CCOCC3)oc12,,advanced solid tumour patients,"oral, 120 mg twice daily, continuous monotherapy",,dose reduction due to AE,40%
CN(CCC#N)C(=O)c1ccc([C@H]2[C@@H](F)[C@@H](F)C[C@@H](F)[C@H]2F)cc1,liver microsome stability,cynomolgus liver microsomes,1 µM,,hepatic clearance,4.9 mL/min/kg
NC1(C(=O)N[C@@H](CCO)c2ccc(Cl)cc2)CCN(c2nc[nH]c3nccc2-3)CC1,,metastatic CRPC patients,"320 mg b.i.d., any grade, treatment-related, with: enzalutamide 160 mg daily",,incidence of SIRS,0%
Cn1ncnc1[C@H]1c2n[nH]c(=O)c3cc(F)cc(c23)N[C@@H]1c1ccc(F)cc1,,"human patients, plasma","oral, 600 µg/m2 twice daily day 1, day 5, dose level DL4, median, with: temozolomide 30 mg/m2 daily days 2-6",,AUC(0-8h),83.3 ng·h/mL
COc1ccc2c(c1)CN(C(=O)CCN1CCC(Cc3ccccc3)CC1)CC[S@@+]2[O-],telemetry,conscious dog,"intravenous, 8 mg/kg, 0.5 h",,heart rate,158 ± 45 beats/min
COc1ccnc(C(=O)NCC(=O)O)c1O,soil adsorption,tested soils,geometric mean,,KFoc,388 mL/g
Cc1cn(C(=O)c2c(-c3c(Cl)cc(Cl)cc3Cl)noc2C(C)(C)F)c2cccc(/C=C/C(=O)O)c12,,human patients,"700 mg bid, cycle 1 day 1",,AUC(0-8h),125000 ng·h/mL
CC(C)C[C@H](NC(=O)[C@@H](N)C(C)C)C(=O)N[C@@H](CCCNC(=N)N)C(=O)N[C@@H](Cc1c[nH]c2ccccc12)C(=O)N[C@@H](CO)C(=O)N[C@@H](CCCNC(=N)N)C(=O)N[C@@H](CCCCN)C(=O)N[C@@H](CC(C)C)C(=O)N1CCC[C@H]1C(=O)N[C@@H](CS)C(=O)N[C@H](C(=O)N[C@@H](CO)C(N)=O)C(C)C,"12G5 competition, SUP-T1 cells",human plasma,"concentration not given, 8 h",,remaining activity,7 ± 1%
C=CC(=O)NC1CCN(c2ncc3ncnc(Nc4ccc(Oc5ccc6c(c5)ncn6C)c(C)c4)c3n2)CC1,refers to: total radioactivity,"healthy male volunteers, urine","oral, 60 mg, 336 h post-dose, 14C-labelled, geometric mean",,dose recovered as radioactivity,1.25%
COCCC(=O)Nc1ccc(C2CCCCC2)cc1,liver microsome stability,dog liver microsomes,1 µM,,hepatic clearance,29 mL/min/kg
O=C(Nc1nc2cccc(-c3ccc(CN4CCS(=O)(=O)CC4)cc3)n2n1)C1CC1,refers to: somnolence,rheumatoid arthritis patients,"oral, 300 mg once daily, 4 weeks, any relatedness",,treatment-emergent adverse events,0%
C#Cc1ccc(C(F)(F)F)cc1C=O,"chemical stability, HPLC-MS",borate buffered saline,"pH 10.2, no N-acetyl-lysine",,degradation rate constant,0 h⁻¹
CN1C(=O)[C@@H](NC(=O)c2nnc(Cc3ccccc3)[nH]2)COc2cccnc21,,"human, plasma","oral, 100 mg once daily, day 14, median",,Tmax,3 h
CCCc1oc(CCC(=O)O)c(C(=O)O)c1C,ultrafiltration,normal rat serum,37 °C,,serum protein binding,100%
O=C(Cc1cccnc1)Nc1ccc(C2CCCCC2)cc1,,dog liver microsomes,1 µM,,hepatic clearance,25 mL/min/kg
O=C(Nc1ccc(OC(F)(F)Cl)cc1)c1cnc(N2CC[C@@H](O)C2)c(-c2ccn[nH]2)c1,"per laboratory record, refers to: hemoglobin decrease",human patients,"oral, dose not given, dose-finding study",,grade ≥3 event rate,1%
C=CC(=O)NC1CCN(c2ncc3ncnc(Nc4ccc(Oc5ccc6c(c5)ncn6C)c(C)c4)c3n2)CC1,,"human, male, plasma","oral, 30 mg, fed, adjusted geometric mean",,AUC(0-tz),4.18 µM·h
Cl.[2H]C([2H])([2H])CC(=O)c1cnc(NC(=O)C2CC2)cc1Nc1cccc(-c2ncn(C([2H])([2H])[2H])n2)c1OC,,"human, fed, multiple dose","oral, 60 mg once daily, tablet, day 14, geometric mean",,AUC(0-tau),4070 ng·h/mL
CCc1cc(C(=O)NC)c2nccc(N3CCc4c(cc(Cn5ccnc5)cc4-c4cn(C)nc4C(F)(F)F)C3=O)c2c1,,Sprague Dawley rats,"oral, 100 mg/kg twice daily, 7 days",reference: vehicle,blood Mono change,-18.6%
Cc1cc(Nc2ccc(S(F)(F)(F)(F)F)cc2)n2nc(C(C)(F)F)nc2n1,LC-MS/MS,"human vivax malaria patients, plasma","oral, 600 mg, mean",,AUC(0-168 h),744000 ng·h/mL
CCn1c(C(=O)N(C2CC2)C2CC2)cc2c3c(ncn3C)c(Nc3cc(C)n(C)n3)nc21,,cancer patients,"oral, 200 mg twice daily, day 15, 339.0 h",,plasma concentration,6640 ng/mL
CCCCCNC(=O)N1CCC(CN(Cc2ccc(Cl)cc2)Cc2ccc([N+](=O)[O-])s2)C1 (stereo not drawn),refers to: BA%,"C57BL/6 mouse, blood","100 mg/kg twice daily, 7 days",,blood cell fraction,0.8 ± 0.3%
CCO[C@H]1CCN(Cc2c(OC)cc(C)c3[nH]ccc23)[C@H](c2ccc(C(=O)O)cc2)C1,,"PNH patients, active haemolysis","oral, 100 mg, treatment",,incidence reverse T3 increase,14.3%
O=C(NCCN1CCCC1=O)c1ccc(C2CCCCC2)cc1,liver microsome stability,cynomolgus liver microsomes,1 µM,,hepatic clearance,41 mL/min/kg
CN(C(=O)n1cnc(-c2ccc[n+]([O-])c2)c1)[C@H]1CC[C@H](O)CC1,,"rat, cortex","oral, 10 mg/kg single dose, 4 h",,tissue concentration,9.2 ± 0.5 ng/g
O=C(c1ccc(F)cc1)C1CCN(CCn2c(=O)[nH]c3ccccc3c2=O)CC1,,human liver microsomes,,,hepatic clearance,14.2 mL/min/kg
NC(=O)c1[nH]cnc1N,,"human patients, plasma","IV infusion over 1 h, 1000 mg/m^2 DTIC, cycle 1 day 1, DTIC alone",,AUC(0-8h),20800 ng·h/mL
CNCc1ccc(-c2[nH]c3cc(F)cc4c3c2CCNC4=O)cc1,,human patients,"oral, 840 mg twice daily, all grades",,pulmonary embolism incidence,0%

# Repeated from above:
SMILES,assay,test system,conditions,how to read,measurement,result
COc1cc(Nc2ncc3c(n2)-c2ccc(Cl)cc2C(c2c(F)cccc2OC)=NC3)ccc1C(=O)O,,patients,"oral, dose not given, grade 3, any attribution, with: pembrolizumab",,decreased platelet count incidence,8%
N#CCC(=O)Nc1ccc(C2CCCCC2)cc1,hepatocyte stability,cryopreserved rat hepatocytes,1 µM,,hepatic clearance,50 mL/min/kg
Cl.N=C(CC(O)c1cc2c(F)cc(F)cc2c2cc(C(F)(F)F)ccc12)Nc1ccc(F)c(F)c1 (stereo not drawn),,human plasma,"50 ng/mL, 24 h, 37 °C",,degradation,37.8%
CCO,,human,concentration not given,,TEAE leading to withdrawal,0%
